Results of several laboratories.
Every numbered part comes from another study and shows a few of its results, in no order.

Series 1
Target: RNA binding protein fox-1 homolog 2, RRM domain, GST-SBP tag (RBFOX2, Homo sapiens, UniProt O43251-10, residues 100-194)
Technique: RNA Bind-n-Seq
Molecule type: RNA
Medium: in vitro
Tested at: 365 nM
Notes: natural RNA segment, single round, ends assumed
Reference: no-protein control
Reading: higher = stronger binding
Residues (chain): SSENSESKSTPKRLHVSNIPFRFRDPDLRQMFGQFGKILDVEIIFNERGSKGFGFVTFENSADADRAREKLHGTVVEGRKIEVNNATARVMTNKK
Under “RBNS enrichment (R)”, `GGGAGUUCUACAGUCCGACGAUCGAAUGUCAGGACUUUAUCAGCAGGGGUAAAACUACCACCUGGCCUAGCCUAAGUAGGAAGUGAAAAGAUAAUUCACCAAACAAUGAUUAAUCAGAUAGAAGUUCUAGUCAUGGAAUUCUCGGGUGCCAA` is recorded as 0.283.
Under “RBNS enrichment (R)”, `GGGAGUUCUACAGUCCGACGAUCUUGGUAGUUAAGCAAACUGACAUUACGGAAAGUGCCUUAGACACUACAGUACUAAGACAAUGUUGAAUAUAUCAUUCGCCUCUAUAACAAUUUAAUGUAUUCAGUUUUGAUGGAAUUCUCGGGUGCCAA` is recorded as 0.36.
Under “RBNS enrichment (R)”, `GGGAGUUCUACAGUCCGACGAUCCCCAUUACUAAUGUAGAAAUGUUAAAUGGUAAAACAUAAUUUGCUAAAAUGACCAGUUUUCAGAUUCACCUGUGCGUGUGCCCCCCACUCCCAUCCCACCCUGUUCUUUCUGGAAUUCUCGGGUGCCAA` is recorded as 0.823.
For `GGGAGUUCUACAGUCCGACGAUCAACGUACUCACCGCCGCGGACAAUCCCCCACCCCGAUCCCUCGCCAGACCAGGACGCUUCCUCAAGCCCAGCCUUCUACAGAGAGUGUGAACGGUACAGCCCCGGCCUGAUGGAAUUCUCGGGUGCCAA`, “RBNS enrichment (R)” read 0.194.
`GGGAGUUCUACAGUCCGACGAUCAGUCGUGUGGGUCGAGGAUUCUGUGCCUCCAGGACCAGGGGCCCACCCUCUGCCCAGGGAGUCCUUGCGUCCCAUGAGGUCUUCCCGCAAGGCCUCUCAGACCCAGAUGUUGGAAUUCUCGGGUGCCAA`: “RBNS enrichment (R)” 0.308.
For `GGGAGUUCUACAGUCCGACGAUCAGACCCCACGCCCCUCACUGAGCUCCCAGUUCAGAGGAAAGCCAGACAAUUAAACAGCAGUUACAAUAUGUGUGUGGCUUCUGUCUACUCAAGUUUCCUCUCAGGUCCUCUGGAAUUCUCGGGUGCCAA`, “RBNS enrichment (R)” read 0.368.
For `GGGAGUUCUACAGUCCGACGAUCGAUUUUGACUGAGUGAGACUUCUAGCAUGAAAGUCCCACUUUGAUUAUUGCUUAUUUGAAAACAGUAUUCCCAACUUUUGUAAAGUUGUGUAUGUUUUUGCUUCCCAUGUUGGAAUUCUCGGGUGCCAA`, “RBNS enrichment (R)” read 23.3.
`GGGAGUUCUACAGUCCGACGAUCAGCAAUCCGCCCACCUUGACUUCCCAAAGUGCUGGGAUUAUGGGCGGGUGUGAGCCAUUGCGCCCAGCCUUGAAGUCAUGUUCUAAAUUGUAUUUGAAUUUGUGCCUCUUUGGAAUUCUCGGGUGCCAA`: “RBNS enrichment (R)” 0.227.
For `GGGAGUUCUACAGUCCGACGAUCCCUGCGGGGCCCUGAGCCUCCCCCUGUGCCAGCAGCCCCACUCCCUCAGGGUCCAGCCAUGCCCCACCCUGGACUGAAGUUCUGCAAAGUCCUCCGAGGACCGGAACACGUGGAAUUCUCGGGUGCCAA`, “RBNS enrichment (R)” read 0.506.

Series 2
Target: Fragile X messenger ribonucleoprotein 1, C-terminal low-complexity region (Fmr1, Mus musculus, UniProt P35922)
Technique: RNA Bind-n-Seq
Molecule type: RNA
Medium: in vitro
Tested at: 200 nM
Notes: whole 134-nt RNA, ends assumed
With: 150 mM LiCl
Reference: input library
Reading: higher = stronger binding
Library: 7-deaza-guanosine replaces G
The log2 enrichment of `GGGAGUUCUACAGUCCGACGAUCCACAGACAACACGCACCCACACAGACACAGAGGGAAGGGGUUGGGAUUGGGACAGGGUGCACAGCAGGGCGGGGUAGGACCCCAGCCCCUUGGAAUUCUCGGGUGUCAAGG` is reported as 0.546.
The log2 enrichment of `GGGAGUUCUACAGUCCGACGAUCUGGCCCUGGUGGCAUGCGGGGAGGAAGAGGUGGCCUCAUGGAUCGUGGUGGUUCCGGUGGAAUGUUCAGAGGUGGCCGUGGUGGAGACAGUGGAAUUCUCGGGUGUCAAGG` is reported as 0.205.
`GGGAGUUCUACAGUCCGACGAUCAAGUCCUGUGCUACACAUCGUAUGUACCGAAUCGGGGUGGGGAAAAAGGGGUGGGGAAAGUAUUAUGUUACGCCGUUCGGAUCUGCACUUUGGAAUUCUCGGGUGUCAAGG` gave a log2 enrichment of 0.189.
`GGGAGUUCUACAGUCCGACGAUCGUCCUGUGCUACACAUCGUAUGUACCGAAUCGGGGUUUGGGGUUUUUUUGGGGUGGGGAAAGUAUUAUGUUACGCCGUUCGGAUCUGCACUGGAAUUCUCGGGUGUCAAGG` has a log2 enrichment of -0.642.
`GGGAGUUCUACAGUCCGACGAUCAGUCCUGUGCUACACAUCGUAUGUACCGAAUCGGAAAAGGGGAAAAGGGAAAAGGGGAAAGUAUUAUGUUACGCCGUUCGGAUCUGCACUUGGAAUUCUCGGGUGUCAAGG` gave a log2 enrichment of -0.572.
`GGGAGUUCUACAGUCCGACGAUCCACAGACAACACGCACCAACACAGACACAGAGGGAAGGGGUUGGGAUGGGGACAGGGUGCACAGCAGGGCGGGGUAGGACCCCAGCCCCUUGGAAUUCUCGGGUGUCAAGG` gave a log2 enrichment of 0.676.
The log2 enrichment of `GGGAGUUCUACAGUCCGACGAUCUUCACAGGUAAGUGGGGCAGUGUCCGGACCAGUGGACGCAGCAGUGGCCUUGGCACCGAUGUGGGCUCCCGGCUAGCUGGCAGAGACGCGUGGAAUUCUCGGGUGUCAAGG` is reported as -0.305.
With `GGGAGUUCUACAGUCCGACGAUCUUCCCCACUUCCUUCCCUCCAGUCCCCACUCACUCACAUGCACACACUAACCUUGGAGCCGAUGGGAUUGAGUGACUGGCACUUGGGACCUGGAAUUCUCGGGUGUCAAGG` the log2 enrichment was 1.66.
For `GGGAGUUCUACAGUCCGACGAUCAAGUCCUGUGCUACACAUCGUAUGUACCGAAUCGGGCCCGGGGCCCGGGGCCCGGGAAAGUAUUAUGUUACGCCGUUCGGAUCUGCACUUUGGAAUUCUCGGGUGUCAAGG`, the log2 enrichment was -2.92.
For `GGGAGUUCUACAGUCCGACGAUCAAGUCCUGUGCUACACAUCGUAUGUACCGAAUCGGGAGGGAAAAAAAGGGAAAGGGAAAGUAUUAUGUUACGCCGUUCGGAUCUGCACUUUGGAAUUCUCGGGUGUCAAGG`, the log2 enrichment was -0.215.
For `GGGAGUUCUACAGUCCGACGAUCGUCCUGUGCUACACAUCGUAUGUACCGAAUCGGCCCCCGGGCCCCCGGGGCCCCCGGGAAAGUAUUAUGUUACGCCGUUCGGAUCUGCACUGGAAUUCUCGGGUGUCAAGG`, the log2 enrichment was -2.82.

Series 3
Target: Sal-like protein 4, full length isoform B (SALL4, Homo sapiens, UniProt Q9UJQ4-2, residues 1-616)
Technique: universal PBM
Molecule type: double-stranded DNA, one strand shown
Medium: in vitro
Tested at: not given
Notes: 8-mer, flanks averaged, mean of replicates
Reading: higher = stronger binding
`AGGCAATC` gave an E-score of -0.0563.
With `GCCGAGGC` the E-score was -0.241.
`AGAACGCG` has an E-score of -0.207.
`CAGGGTCG` has an E-score of -0.351.
With `CTCATCAA` the E-score was 0.0807.
`GTTCCGAA` has an E-score of -0.112.
`GATAAGGA` has an E-score of 0.108.
The E-score of `AGATGGTA` is reported as 0.137.
`TGATTGAA` has an E-score of 0.175.
For `CCTAGAAC`, the E-score was -0.0578.
`AATGTAAG` has an E-score of 0.264.
`AGGCAGAG` has an E-score of -0.0572.
`ACTGAAAT` gave an E-score of 0.203.
`GCGACCGC` has an E-score of -0.244.
For `AAAAAGCT`, the E-score was 0.222.
`AGCACTAA` has an E-score of 0.0918.
With `ATCGGGGG` the E-score was -0.197.
`GATGTCAC` has an E-score of -0.0649.
With `GAGCTAGC` the E-score was -0.129.
The E-score of `AAGAGAAA` is reported as 0.164.
`GGGGTAAA` gave an E-score of 0.0535.
For `CCTGCACC`, the E-score was -0.307.
The E-score of `GAGCGCAA` is reported as -0.19.
With `AACAGTAA` the E-score was 0.0157.

Series 4
Target: RING finger protein unkempt homolog, zinc fingers 1-6, GST-SBP tag (UNK, Homo sapiens, UniProt Q9C0B0, residues 30-357)
Technique: RNA Bind-n-Seq
Molecule type: RNA
Medium: in vitro
Tested at: not given
Notes: RNA with constant flanks, human and mouse sites, ends assumed
Reference: input RNA pool
Reading: higher = stronger binding
Target sequence (chain): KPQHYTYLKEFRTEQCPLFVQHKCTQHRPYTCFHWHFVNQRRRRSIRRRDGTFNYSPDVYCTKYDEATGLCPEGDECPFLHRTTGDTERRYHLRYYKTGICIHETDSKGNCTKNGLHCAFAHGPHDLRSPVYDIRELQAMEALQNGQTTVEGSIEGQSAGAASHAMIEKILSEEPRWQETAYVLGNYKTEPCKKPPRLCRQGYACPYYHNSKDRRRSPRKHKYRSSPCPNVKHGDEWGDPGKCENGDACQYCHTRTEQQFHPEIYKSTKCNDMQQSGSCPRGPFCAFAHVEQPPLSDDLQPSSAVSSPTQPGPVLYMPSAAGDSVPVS
`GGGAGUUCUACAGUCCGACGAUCUGGAAGGAUGAGUUCAAGGCACACUCGAGGGUGAAGUGUCCAAACUCAGGGUGCUGGCUGGAGUUCCCCAGCAUCUACGGGCUCAAGUACCAUUACCAGCGGUGCCAAGGGGGUGCCAUCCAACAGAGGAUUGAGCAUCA` gave a bound/input enrichment of 0.0769 ratio.
`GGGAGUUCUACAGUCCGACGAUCACCCAGUUCGUGGUGCACCUGCUCAUUGGCUUCGUCUUCGUGGUGAGCGGGUUAAUUAUCAACUUCACCCAGCUGUGCACACUGGCCCUCUGGCCCAUCAGCAAGCACCUAUACCGCCGUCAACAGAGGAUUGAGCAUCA` gave a bound/input enrichment of 0.162 ratio.
With `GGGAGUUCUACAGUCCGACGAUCAAGGGCCCGGAGGGUGUCUCCCCAAGCCAGGCACACCUGCACAAACCCAGAGCCGACCCUCAGCUGCCUUCUAGGACACCUGUGCAGGGUCCCAGACCCAGGCCCCAGAGCAGCCCAGGCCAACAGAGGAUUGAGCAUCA` the bound/input enrichment was 0.136 ratio.
`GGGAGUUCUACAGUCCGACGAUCGCAGGUGUCAACUCUGAAAUGGUCAAGCUUUAUGACCUUCGUUCUUUUGAUAAGGGGCCAUUUGCUACCUUUAAGAUGCAGUAUGAUCGAACUUGUGAGUGGACAGGACUUAAAUUCAGCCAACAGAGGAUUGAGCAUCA` has a bound/input enrichment of 0.114 ratio.
With `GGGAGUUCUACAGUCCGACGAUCAUUGACUUAAUGAUAAAAGAAUAUCCAGCUAAACACGCUGAAUAUUCGGUUAUCCUACAAGAAAAGGAACGUCAGAGAAUUACAGAUCAUUAUAAAGAGUAUUCUCAAAUGCAACAACAGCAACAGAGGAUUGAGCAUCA` the bound/input enrichment was 0.109 ratio.
For `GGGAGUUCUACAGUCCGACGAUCGGAGGGAUCGUCCUUGUCUUGGGUGUGCAGGCUGUAAUUUUCUUUCUCUAUAAGUUCUGCAAAUCUAAAGAACGAAAUUACCAUACUCUGUAAACAGACCUGUUAAAUUAAUGUGGACUGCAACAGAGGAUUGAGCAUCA`, the bound/input enrichment was 0.216 ratio.
`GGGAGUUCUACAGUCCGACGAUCAGAAGAUUUUAUCUAGCUUAUACAAGGCUGCUGGUGUUCCCUCUUUUUUUCCACGAGGGUGUUUUUGGCUGCAAUUGCAUGAAAUCCCAAUGGUGUAGACCAGUGGCGAUGGAUCUAGGACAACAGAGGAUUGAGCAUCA` has a bound/input enrichment of 0.523 ratio.
`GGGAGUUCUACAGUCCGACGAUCUUUUAUGAACGACUGGCUGGCCAUGGUCCAAAACUAGGACCUGUCACUAGAAAGCAUCCUUUAGUUACCAGGUAUUUUACUUUCCCAUUUGAAGAGAUAGACUUCUCCAUGGAAGAAUCUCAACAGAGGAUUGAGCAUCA` gave a bound/input enrichment of 3.2 ratio.
The bound/input enrichment of `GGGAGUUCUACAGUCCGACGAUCAAAGCCCGAGACAGAAAACUUCUUGCUAUCUACCUCCACCAUGAUGAAAGUGUACUAACCAACGUGUUCUGCUCACAAAUGCUUUGUGCUGAAUCCAUUGUUUCCUAUCUGAGUCAAAAUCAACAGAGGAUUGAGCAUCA` is reported as 0.249 ratio.
`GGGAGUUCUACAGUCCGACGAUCACGCCCAGCCGCCGAGCCCUGCCUGGCCCCUGCCGACGGCCCCAGCUGGACCUGGACAUCCUCAGCAGCCUCAUCGACUUGUGUGACAGCCCCGUGUCCCCUGCCGAGGCCAGCCGCACUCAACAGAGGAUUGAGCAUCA` gave a bound/input enrichment of 0.136 ratio.
For `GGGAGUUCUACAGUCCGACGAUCUACUUGACGAAGGCCUACGACCUCGUCGUGGACUGGCCCGUGACCCUCGUGAGAGAGUUUAUUGAACGACAGCAUGCCAAGAACCGAACCUACUACUACCACCGACAGUACCGUCGAGUGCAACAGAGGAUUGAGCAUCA`, the bound/input enrichment was 0.0454 ratio.
